Measured values collected from several papers.
Every numbered part comes from another study and shows a few of its results, in no order. Changes are numbered by the printed parent chain.

Study 1
Target: RNA binding protein fox-1 homolog 2, RRM domain, GST-SBP tag (RBFOX2, Homo sapiens, UniProt O43251-10, residues 100-194)
Method: RNA Bind-n-Seq
Molecule type: RNA
Matrix: in vitro
Tested at: 365 nM
Setting: natural RNA segment, single round, ends assumed
Reference: no-protein control
Direction: higher = stronger binding
Construct (chain): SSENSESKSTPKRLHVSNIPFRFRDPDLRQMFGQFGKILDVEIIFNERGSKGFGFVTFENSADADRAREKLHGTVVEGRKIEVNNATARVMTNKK
Under “RBNS enrichment (R)”, `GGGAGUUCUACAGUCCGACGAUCGUCUCAAAAAGAAGUCUUAAGACGGCAUUGCUUAAGGUGCUUCAUUCCCUAAUCCCCUUUUGAUUUGUUUCCAAAAUAAAAGAGAAUCUUUUCUUCCCUACCCCAGGCUUUGGAAUUCUCGGGUGCCAA` is recorded as 0.59.
Under “RBNS enrichment (R)”, `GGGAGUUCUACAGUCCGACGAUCGAACUUAAAUAGAAGGCAACAGGAAAUUUAUAUAGGAACUAUUUUCAUUCCACUUGUGUAAGUUAAGUCUUGACUCUUUCAAAUGCAAAAAACCUAUUUUAUGCUUUGUUUGGAAUUCUCGGGUGCCAA` is recorded as 0.554.
For `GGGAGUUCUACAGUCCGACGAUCAUAAAGAAGGUAGCUCAGCGCCACUGAGAUUGUGUUCUGCAUAAUAUUUGGAAGGCUUCCAUUUCCAUUGAAAACAAAUCCAUGAGUGAGAGGGAAAGUCUAGUAUCAAUUGGAAUUCUCGGGUGCCAA`, “RBNS enrichment (R)” read 0.794.
Under “RBNS enrichment (R)”, `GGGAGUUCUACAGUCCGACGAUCUUUGAGAUGUGUAAUUCUUUUAUGGAGUUUUUAAAAAGAAUUUUCAUAUUGUUUUUUCUAACAUGGCUUCAUUAAACGUUUAAGUAUUUUAAAACUAUGUAAUAUUUGGAUGGAAUUCUCGGGUGCCAA` is recorded as 0.76.
`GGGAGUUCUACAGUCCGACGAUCUCUGCAUUUAGAUAACUAUUAAAGGUUGUUAAGAUGAAGAUUUACUGUUUCUUUGUUACUCGUUGGUACAGCUGUUUGUUUUACUUGCACAUUUGUACAUAUACUUAAUGUGGAAUUCUCGGGUGCCAA` — result for “RBNS enrichment (R)”: 0.329.
For `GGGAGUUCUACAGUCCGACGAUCACUAUAAAAAGCAAUAAAUGCAAACAAAACAAAAAAGUUCAUGGUAAAAUGACGGAAUCAGCAUGUGAGUAAGGAUCGCUUUCCUCAAAGGUUACCCUCCCACCCCCGCUUGGAAUUCUCGGGUGCCAA`, “RBNS enrichment (R)” read 3.11.
`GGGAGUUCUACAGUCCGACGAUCGCCCUGGGCCUGGCGGCACAGCAGCACUUGCGUUCUCGGGGCUGUCGAUUUCCUGCCACCUGGGCAGAUAACCUGGAGAUUUUCACCUUUUCUUUUCAGCUUGAUUGCAUUGGAAUUCUCGGGUGCCAA`: “RBNS enrichment (R)” 3.11.
`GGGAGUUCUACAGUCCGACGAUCAUCCUGGAGAACAAGUUACCAUGCAAGGAGUUGACAUCAGUUGUUAAGUGAGGCCCAUUCUUGUUUUUACAUCGGUCCUUUGUGGUUUUUCUGGGCCAGCAGAGAUUCUGUGGAAUUCUCGGGUGCCAA`: “RBNS enrichment (R)” 0.364.
For `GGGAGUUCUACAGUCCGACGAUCGCCACAUUCUCCCAGAAGAGACAGCCACAGAUAGACUGGAACUCUCUGGCAUGUGAGUGCAUAUGUGUGACUGCCCCACUGUGGGACCUGCCACAUCCCUCCAUCCAUGUUGGAAUUCUCGGGUGCCAA`, “RBNS enrichment (R)” read 0.411.
`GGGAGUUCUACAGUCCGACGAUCAAGAGACUUCUGACCUUGCUUCCCAACAGCUAAAGGGCUAACUGUCUUUAUGGAAGGCACUUGUUACAGUAUUUGCCCAUUGUACAGAGCAAUGCUACAUUGUUGUAAAAUGGAAUUCUCGGGUGCCAA`: “RBNS enrichment (R)” 0.386.
`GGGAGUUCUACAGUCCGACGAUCGUUGAUAGGUGUGGUGGACAGAGGCACAGUUGGCUUCAGGGUUCCUUCCCUGUUUUCUCCCCAGAAUUCUAAAACAAAGUUCAGUGGCGAGCAGCAUCUCUAGGCUCUGGUGGAAUUCUCGGGUGCCAA`: “RBNS enrichment (R)” 0.807.
Under “RBNS enrichment (R)”, `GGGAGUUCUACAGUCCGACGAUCCAGUGAUGGAGAAUCACUGUUGAUUGAGAUUUUGGUUUCCAUGUGAUUUGUUUUCUUCAAUAGUCUUAUUUUCAGUCUCUCAAAUACAGCCAACUUAAAGUUUUAGUUUGUGGAAUUCUCGGGUGCCAA` is recorded as 0.428.

Study 2
Molecule: PhoQ, residues 284 288 289 292 302 303 TAVSDG
Method: Sort-seq
Refers to: YFP reporter
Matrix: E. coli
Setting: PhoQ-PhoP variant library
With: 10 µM Mg2+
Reference: high Mg2+ state
Direction: higher = stronger signaling
It gave 2.92 for fold induction (PhoP, residues 12 14 15 18 19 LHHYF (Escherichia coli, UniProt P23836)).
For PhoP, residues 12 14 15 18 19 VGHWL (Escherichia coli, UniProt P23836): fold induction read 1.28.
It gave 2.79 for fold induction (PhoP, residues 12 14 15 18 19 TPWTL (Escherichia coli, UniProt P23836)).
For PhoP, residues 12 14 15 18 19 NFFVT (Escherichia coli, UniProt P23836): fold induction read 9.12.

Study 3
Target: CCNF, cyclin fold, Cln2 fusion (human)
Method: yeast growth competition, sequencing
Matrix: yeast
Setting: weak parent motif
Reference: not given
Direction: higher = stronger binding
Parent: PKN2 docking peptide (human); VSAVQKLDFSDTM
`V4A` — result for “normalised enrichment score”: -0.487.
`S2R`: “normalised enrichment score” 1.84.
`F9P`: “normalised enrichment score” -0.487.
For `V4L`, “normalised enrichment score” read -0.212.
Under “normalised enrichment score”, `D11M` is recorded as 1.35.
`D8T` — result for “normalised enrichment score”: 0.481.
For `D8F`, “normalised enrichment score” read 1.42.
`A3N`: “normalised enrichment score” 0.161.
For `F9D`, “normalised enrichment score” read 0.364.
Under “normalised enrichment score”, `D8W` is recorded as 1.24.
`F9M`: “normalised enrichment score” -0.338.
For `S10G`, “normalised enrichment score” read 1.59.
`T12Y` — result for “normalised enrichment score”: 1.63.
`M13A`: “normalised enrichment score” 0.704.
`L7M`: “normalised enrichment score” -0.489.

Study 4
Target: Interferon regulatory factor 5, full length, phosphomimetic (IRF5, Homo sapiens, UniProt Q13568-2, residues 1-514, S451D/S453D/S456D/S462D)
Method: protein-binding microarray
Molecule type: double-stranded DNA, one strand shown
Matrix: in vitro
Tested at: 940 nM top
Setting: 60-bp whole probe
With: salmon DNA 0.4 mg/ml
Reference: random background probes
Direction: higher = stronger binding
Shared flanks, not repeated: GCCTAGCAC … GTCTTGATTCGCTTGACGCTGCTG
`GACGGTCTCGGTTTCGGCACGTGCTAG` — result for “fitted relative affinity”: 6.19 z-score.
`CTCGTGGTCCTGCCCTGCCTGTGCTAG` — result for “fitted relative affinity”: -0.557 z-score.
`AGACACCCCTTTGGTGCCACGTGCTAG` — result for “fitted relative affinity”: -0.355 z-score.
`TTAGATTCCAGTATCGATTAGTGCTAG` — result for “fitted relative affinity”: 5.25 z-score.
`TTAGGTTACGACTATCGGTTAGTGCTA`: “fitted relative affinity” 0.469 z-score.
Under “fitted relative affinity”, `TCACTTTTATCCCTGACACTGTGCTAG` is recorded as 1.53 z-score.
`TCATTTTTTGGTTTCTGACTGTGCTAG`: “fitted relative affinity” 2.37 z-score.
Under “fitted relative affinity”, `TCCCCTTCTACTCTCCTGCAGTGCTAG` is recorded as 1.33 z-score.
Under “fitted relative affinity”, `TGCTTTCTCCCAAGTCTTGTTGTGCTA` is recorded as 1.77 z-score.
`TTTTTTTTTTTTTTTTGGAAGTGCTAG` — result for “fitted relative affinity”: 1.3 z-score.
`TTAGGTTTCGGACTGGGTCAGTGCTAG` — result for “fitted relative affinity”: 6.71 z-score.
`TCATTTCTTTACTTCACACTGTGCTAG` — result for “fitted relative affinity”: 1.71 z-score.
For `TTAGAACTGATTCTCGATTAGTGCTAG`, “fitted relative affinity” read 2.16 z-score.
`TTACGTCTCCTTCTCCTTTAGTGCTAG`: “fitted relative affinity” 1.2 z-score.
Under “fitted relative affinity”, `CACGATTCCAGTTTCGAGACGTGCTAG` is recorded as 4.16 z-score.
For `GATGGACTGGACTATCGGGACGTGCTA`, “fitted relative affinity” read -0.128 z-score.
`TTAGAACTGGGGACTGGATCAGTGCTA` — result for “fitted relative affinity”: -0.33 z-score.
`TATAGGTTGTTTCTAATATTGTGCTAG` — result for “fitted relative affinity”: 0.985 z-score.
For `GACGGTATCGACACTGGGAACGTGCTA`, “fitted relative affinity” read 3.91 z-score.
Under “fitted relative affinity”, `GACGGTCTCCTTATCCAGACGTGCTAG` is recorded as 0.513 z-score.

A few entries again (study 1):
For `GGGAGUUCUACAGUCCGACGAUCAUAAAGAAGGUAGCUCAGCGCCACUGAGAUUGUGUUCUGCAUAAUAUUUGGAAGGCUUCCAUUUCCAUUGAAAACAAAUCCAUGAGUGAGAGGGAAAGUCUAGUAUCAAUUGGAAUUCUCGGGUGCCAA`, “RBNS enrichment (R)” read 0.794.
Under “RBNS enrichment (R)”, `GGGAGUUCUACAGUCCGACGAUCCAGUGAUGGAGAAUCACUGUUGAUUGAGAUUUUGGUUUCCAUGUGAUUUGUUUUCUUCAAUAGUCUUAUUUUCAGUCUCUCAAAUACAGCCAACUUAAAGUUUUAGUUUGUGGAAUUCUCGGGUGCCAA` is recorded as 0.428.
Under “RBNS enrichment (R)”, `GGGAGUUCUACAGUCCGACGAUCGUCUCAAAAAGAAGUCUUAAGACGGCAUUGCUUAAGGUGCUUCAUUCCCUAAUCCCCUUUUGAUUUGUUUCCAAAAUAAAAGAGAAUCUUUUCUUCCCUACCCCAGGCUUUGGAAUUCUCGGGUGCCAA` is recorded as 0.59.
For `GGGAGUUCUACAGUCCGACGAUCGCCACAUUCUCCCAGAAGAGACAGCCACAGAUAGACUGGAACUCUCUGGCAUGUGAGUGCAUAUGUGUGACUGCCCCACUGUGGGACCUGCCACAUCCCUCCAUCCAUGUUGGAAUUCUCGGGUGCCAA`, “RBNS enrichment (R)” read 0.411.
`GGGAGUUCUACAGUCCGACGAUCGCCCUGGGCCUGGCGGCACAGCAGCACUUGCGUUCUCGGGGCUGUCGAUUUCCUGCCACCUGGGCAGAUAACCUGGAGAUUUUCACCUUUUCUUUUCAGCUUGAUUGCAUUGGAAUUCUCGGGUGCCAA`: “RBNS enrichment (R)” 3.11.
For `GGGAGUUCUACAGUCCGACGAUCACUAUAAAAAGCAAUAAAUGCAAACAAAACAAAAAAGUUCAUGGUAAAAUGACGGAAUCAGCAUGUGAGUAAGGAUCGCUUUCCUCAAAGGUUACCCUCCCACCCCCGCUUGGAAUUCUCGGGUGCCAA`, “RBNS enrichment (R)” read 3.11.
